Published values pooled from the literature.
Lines come from different studies, so protocols differ.
Cell line: SK-OV-3

O=C(O)c1ccc2c3n(nc2c1)[C@@H]1[C@H](CO3)N(CC2CC2)[C@@]2(C(=O)Nc3cc(Cl)ccc32)[C@H]1c1cccc(Cl)c1F  IC50 (cell growth or viability, ATP luminescence): > 5 µM
CCCc1cc2cc(-n3c4c(c5ccccc53)C(=O)CC(C)(C)C4)cc(N3CCC(O)CC3)c2c(=O)[nH]1  IC50 (cell growth or viability, MTS): 11.2 µM
Cc1ccc([N+](=O)[O-])cc1S(=O)(=O)N(C)/N=C/c1cnc2ccc(Br)cn12  IC50 (cell viability, MTS): 0.291 µM
CNS(=O)(=O)Nc1nccc(Cc2c(C)c3ccc(Oc4ncccc4F)cc3oc2=O)c1F  IC50 (cell viability; 7 days): 0.576 µM
O=Cc1ccc2c(c1C#Cc1ccc(O)cc1)C(c1ccc(O)cc1)(c1ccc(O)cc1)c1cc(O)ccc1-2  IC50 (cell growth or viability, MTT; 48 h): > 50 µM
CCCc1cc2cc(-n3nc(C4CCC4)c4c3CC(C)(C)CC4=O)cc(N3CCC(O)CC3)c2c(=O)[nH]1  IC50 (cell growth or viability, MTS): > 50 µM
O=Cc1ccc(-c2ccc(O)cc2)c(C(=C2C=CC(=O)C=C2)c2ccc(O)cc2)c1C#Cc1ccc(O)cc1  IC50 (cell growth or viability, MTT; 48 h): 9.17 µM
O=[N+]([O-])c1ccc(C=NNC(Nc2ccccc2)=[S+][Au-][Cl])o1  IC50 (cell growth or viability, resazurin): 87.8 µM
Cc1ccc2c(c1C#Cc1ccc(O)cc1)C(c1ccc(O)cc1)(c1ccc(O)cc1)c1cc(O)ccc1-2  IC50 (cell growth or viability, MTT; 48 h): 11.2 µM
CNC(=S)NN=Cc1ccc([N+](=O)[O-])o1  IC50 (cell growth or viability, resazurin): 27.9 µM
Oc1ccc(C#Cc2cccc3c2C(c2ccc(O)cc2)(c2ccc(O)cc2)c2cc(O)ccc2-3)cc1  IC50 (cell growth or viability, MTT; 48 h): 11.4 µM
CCCc1cc2cc(-n3nc(C4CC4(F)F)c4c3CC(C)(C)CC4=O)cc(N3CCC(O)CC3)c2c(=O)[nH]1 (racemic)  IC50 (cell growth or viability, MTS): 4.51 µM
CCNC(NN=Cc1ccc([N+](=O)[O-])o1)=[S+][Au-][Cl]  IC50 (cell growth or viability, resazurin): 19.2 µM
C=CC(=O)N1CCC(Cc2ccc(C(=O)N3CCN(c4nc(-c5cnc(N)nc5C(F)F)nc(N5CCOCC5)n4)CC3)cc2)CC1  IC50 (Akt phosphorylation, inhibitor, in-cell western, item: Akt pSer473): 0.0537 µM
NC(NN=Cc1ccc([N+](=O)[O-])o1)=[S+][Au-][Cl]  IC50 (cell growth or viability, resazurin): 19.1 µM
CCCc1cc2cc(-n3nc(CCC)c4c3CC(C)(C)CC4=O)cc(N3CCC(O)CC3)c2c(=O)[nH]1  IC50 (cell growth or viability, MTS): 6.07 µM

Excerpt of the above:
CCCc1cc2cc(-n3c4c(c5ccccc53)C(=O)CC(C)(C)C4)cc(N3CCC(O)CC3)c2c(=O)[nH]1  IC50 (cell growth or viability, MTS): 11.2 µM
